# Results of several laboratories.
# Numbered parts are unrelated; each lists some results of a single study. Changes are numbered by the printed parent chain.

# Series 1
# Target: ABI1, truncated, D143A, DHFR fusion (Arabidopsis thaliana)
# Method: DHFR PCA, deep sequencing
# Medium: yeast
# Notes: methotrexate growth selection, single substitutions
# Together with: (+)-ABA 200 µM
# Reference: wild-type fitted maximum
# Direction: higher = stronger binding
# Starting sequence: PYL1, truncated, DHFR fusion (Arabidopsis thaliana); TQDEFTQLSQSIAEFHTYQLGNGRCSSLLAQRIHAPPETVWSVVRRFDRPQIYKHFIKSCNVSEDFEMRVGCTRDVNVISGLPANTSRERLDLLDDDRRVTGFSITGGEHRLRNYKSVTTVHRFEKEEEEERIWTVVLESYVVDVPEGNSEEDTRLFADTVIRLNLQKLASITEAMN
Change,relative binding score [%]
D3Q,103
F56L,99.2
G21L,95.4
Q2S,97.3
F5L,100
H34L,98.1
F103C,-1.23
I105V,105
E147K,93.3
Q19E,105
T101K,2.18
S117N,41.3
N165S,31.3
M176F,89.9
F66N,87.3
R163H,81.6
R98M,107

# Series 2
# Target: CEP164, C-terminal peptide (human)
# Method: DHFR complementation, deep sequencing
# Medium: yeast
# Notes: single substitutions, model-inferred values
# Reference: wild type
# Direction: higher = weaker binding
# Starting sequence: PDZK1, PDZ domain 2 (human); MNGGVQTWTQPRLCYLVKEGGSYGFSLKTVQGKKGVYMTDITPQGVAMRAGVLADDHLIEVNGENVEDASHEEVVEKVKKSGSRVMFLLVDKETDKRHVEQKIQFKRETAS; partner HNRVKVYRF
Change,binding free energy change [kcal/mol]
A50H,0.435
H71N,-0.023
H98N,-0.0585
G51Q,0.911
S81N,1.03
A110C,-0.138
F87D,1.5
V99T,-0.179
E64R,0.279
K102H,0.037
R49H,0.498
K28D,1.99
E76L,0.161
T7V,-0.0297
E72F,0.779
I103F,-0.099
V52I,0.315

# Series 3
# Target: CCNA2, cyclin fold, Cln2 fusion (human)
# Method: yeast growth competition, sequencing
# Medium: yeast
# Notes: weak parent motif
# Reference: not given
# Direction: higher = stronger binding
# Starting sequence: SLBP docking peptide (human); ARYKRKLLINDFG
Change,normalised enrichment score
R2A,0.573
L8R,0.629
L7Q,0.258
L7H,1.43
R5S,1.53
N10Q,1.24
K4G,1.13
F12G,1.32
K4C,0.753
K4M,1.57
N10R,0.906
R5I,0.553
I9A,0.0221
F12D,0.362
D11K,1.4

# Series 4
# Target: Histone acetyltransferase KAT6A, winged helix 1, GST fusion (KAT6A, Homo sapiens, UniProt Q92794, residues 1-85)
# Method: protein binding microarray
# Molecule type: double-stranded DNA, one strand shown
# Medium: in vitro
# Concentration: not given
# Notes: 8-mer, flanks averaged, mean of 2 arrays, mostly near background
# Reference: not given
# Direction: higher = stronger binding
# Target sequence (chain): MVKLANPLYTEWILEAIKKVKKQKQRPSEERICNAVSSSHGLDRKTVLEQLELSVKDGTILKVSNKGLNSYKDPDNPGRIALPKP
Sequence,E-score
ACCGAAAC,0.055
TTCCACAA,-0.248
AGGCCGGC,0.282
GATCCTAC,-0.152
ACAAGGTG,-0.0138
GCAGTTCC,0.0456
AGTCTTGA,-0.0839
GTGATGGA,-0.208
AACGCCAG,-0.0909
GGCGGGAC,0.375
CGAGCTAG,-0.0141
CGTTGGAG,0.0396
GTTTTTTA,-0.0549
CACGATAG,-0.215
ATCGTGAC,0.0368
GCCGCTAA,0.359
GTCGTACA,-0.0615
GTCTTGGA,-0.159
CAGATAGG,-0.117
AGAAATAG,-0.257
GGAGAGCC,0.0781
AAAGACTC,-0.214
ATTTTAAG,-0.129
AGTGATCA,-0.117
ATTTGCGG,0.187

# Series 5
# Target: Centromere-binding protein 1, full length, His-tagged (CBF1, Saccharomyces cerevisiae, UniProt P17106, residues 1-351)
# Sequence of UniProt P17106 (whole entry, looked up): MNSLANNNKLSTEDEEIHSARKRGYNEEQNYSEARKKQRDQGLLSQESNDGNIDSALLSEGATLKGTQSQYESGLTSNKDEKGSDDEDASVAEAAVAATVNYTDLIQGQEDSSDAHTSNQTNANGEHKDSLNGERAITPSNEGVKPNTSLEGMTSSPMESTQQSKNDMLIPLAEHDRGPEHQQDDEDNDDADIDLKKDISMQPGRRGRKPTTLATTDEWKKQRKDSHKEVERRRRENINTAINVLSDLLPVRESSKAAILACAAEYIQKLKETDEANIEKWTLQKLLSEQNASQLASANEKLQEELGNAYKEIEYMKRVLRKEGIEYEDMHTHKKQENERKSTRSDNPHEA
# Method: competition protein-binding microarray
# Molecule type: double-stranded DNA, one strand shown
# Medium: in vitro
# Concentration: 2 µM
# Notes: whole 60-bp probe, lowest competitor level
# Together with: Pho4 competitor, 0.05 µM
# Direction: higher = stronger binding
# Constant ends, left off below: … GTCTTGATTCGCTTGACGCTGCTG
Sequence,fluorescence intensity
GAGGTTCGGTTTTGTCATGTGTGCTTTTATACGGCA,250 a.u.
CAATGAAGTTAATATCACATGTTATGATCCACCAAG,741 a.u.
AAGTTGAGGCTGAAGCAGGTGATGCTGGAACAAAGA,125 a.u.
CTGACGGCAACGCGACGCGTGACGGGTAAGATAAGA,220 a.u.
TTTTTCTTCTTAAAGCACGTTAACCAGTAATCAAGG,90 a.u.
GAACAATATCCGAGTCACGTGAAATTTAGATAAGCA,8370 a.u.
CTAACGAAGGTTTTTCACGTGTAGTACAAGCCAAGT,648 a.u.
CGGGGTTAAGTTTGATTAGTGGGTGGCTTGCAGCAG,76.4 a.u.
TTGGTAGAGGCGGTTCTCGTGGTGAAGCCCCTGGTG,50.1 a.u.
ACTCGAATGACGAACTACCTGATCCCCTTCTTATTG,78.6 a.u.
CCATTTCTTCTTCGTCACACGTTAAGCTTGCCAGGA,104 a.u.
CTAACGAAGGTTTGGGGTGTGGGTGACAAGCCAAGT,64.1 a.u.
ACCCCAGCCGCCGGGTTCGTGCCAGTCTGGTAAGCC,56 a.u.
GAATAGTTTTCTGTACACGTGGAGGTATAGTTCTCA,1120 a.u.
CTTCTGTAAATTTGTGAAGTGGGTGGACGCGCCCCG,83.1 a.u.
AGATCTTCGAAGAACCACATGTTGGATGACCGGGCA,78.7 a.u.
TAATAATATTTATTACACGTGATGGAATATATCCTG,5010 a.u.
CTTTCCCGATCTTGTCGCGTGGGTGTAGCACATTTG,94.5 a.u.

# Series 6
# Target: Fragile X messenger ribonucleoprotein 1, C-terminal low-complexity region (Fmr1, Mus musculus, UniProt P35922)
# Method: RNA Bind-n-Seq
# Molecule type: RNA
# Medium: in vitro
# Concentration: 200 nM
# Notes: whole 134-nt RNA, ends assumed
# Together with: 150 mM LiCl
# Reference: input library
# Direction: higher = stronger binding
# All molecules: 7-deaza-guanosine replaces G
# Constant ends, left off below: GGGAGUUCUACAGUCCGACGAUC … UGGAAUUCUCGGGUGUCAAGG
Sequence,log2 enrichment
UCAAGUCCUGUGCUACACAUCGUAUGUACCGAAUCGGUUUGGGUUUGGUUUGGGAAAGUAUUAUGUUACGCCGUUCGGAUCUGCACUUCC,-1.47
AGUCCUGUGCUACACAUCGUAUGUACCGAAUCGGUUUUUGGGUUUUUGGGUUUUUGGAAAGUAUUAUGUUACGCCGUUCGGAUCUGCACU,-1.8
UCCUCAAGUCCUGUGCUACACAUCGUAUGUACCGAAUCGGCGGCGGGGCGGAAAGUAUUAUGUUACGCCGUUCGGAUCUGCACUUCCAGC,0.663
CCUGUGCUACACAUCGUAUGUACCGAAUCGGGAAAAAGGGAAAAAAAGGGUUUUUUUGGGAAAGUAUUAUGUUACGCCGUUCGGAUCUGC,-1.75
UUUCUAGGCAAGAGGAGGAACGACGUAGAAGAGAGGAAGAGAUGAUGAUUCGUCAACGUGAGAUGGAAGAACAAAUGAGGCGCCAAAGAG,1.6
CCUGUGCUACACAUCGUAUGUACCGAAUCGGCCCCCCCGGGGCCCCCCCGGGCCCCCCCGGAAAGUAUUAUGUUACGCCGUUCGGAUCUG,-0.608
CUCAAGUCCUGUGCUACACAUCGUAUGUACCGAAUCGGUUGGGUUGGGUUGGGGAAAGUAUUAUGUUACGCCGUUCGGAUCUGCACUUCC,-1.17
GUCCUGUGCUACACAUCGUAUGUACCGAAUCGGGUUUUUGGGUUUGGGUUUUUUUGGGAAAGUAUUAUGUUACGCCGUUCGGAUCUGCAC,-1.95
AGUCCUGUGCUACACAUCGUAUGUACCGAAUCAAACCCAAACCCCCCCAAAUUUAAAAAAGUAUUAUGUUACGCCGUUCGGAUCUGCACU,1.17
CACAGACAACACGCACCCACACAGACACAGAGGGAAGGGGUUGAAAUGGGGACAGGGUGCACAGCAGGGCGGGGUAGGACCCCAGCCCCU,-1.05
AGUCCUGUGCUACACAUCGUAUGUACCGAAUCGGGUUUUGGUUUUGGGGUUUUGGGGAAAGUAUUAUGUUACGCCGUUCGGAUCUGCACU,-1.34

# Some of these lines once more (series 6):
Sequence,log2 enrichment
UCCUCAAGUCCUGUGCUACACAUCGUAUGUACCGAAUCGGCGGCGGGGCGGAAAGUAUUAUGUUACGCCGUUCGGAUCUGCACUUCCAGC,0.663
CCUGUGCUACACAUCGUAUGUACCGAAUCGGGAAAAAGGGAAAAAAAGGGUUUUUUUGGGAAAGUAUUAUGUUACGCCGUUCGGAUCUGC,-1.75
UUUCUAGGCAAGAGGAGGAACGACGUAGAAGAGAGGAAGAGAUGAUGAUUCGUCAACGUGAGAUGGAAGAACAAAUGAGGCGCCAAAGAG,1.6
CCUGUGCUACACAUCGUAUGUACCGAAUCGGCCCCCCCGGGGCCCCCCCGGGCCCCCCCGGAAAGUAUUAUGUUACGCCGUUCGGAUCUG,-0.608
CUCAAGUCCUGUGCUACACAUCGUAUGUACCGAAUCGGUUGGGUUGGGUUGGGGAAAGUAUUAUGUUACGCCGUUCGGAUCUGCACUUCC,-1.17
GUCCUGUGCUACACAUCGUAUGUACCGAAUCGGGUUUUUGGGUUUGGGUUUUUUUGGGAAAGUAUUAUGUUACGCCGUUCGGAUCUGCAC,-1.95
AGUCCUGUGCUACACAUCGUAUGUACCGAAUCAAACCCAAACCCCCCCAAAUUUAAAAAAGUAUUAUGUUACGCCGUUCGGAUCUGCACU,1.17
CACAGACAACACGCACCCACACAGACACAGAGGGAAGGGGUUGAAAUGGGGACAGGGUGCACAGCAGGGCGGGGUAGGACCCCAGCCCCU,-1.05
